Results collected from several papers.
Compare with care: the assays were run in different laboratories. ± gives the spread as reported.
Sequence of UniProt P49841 (whole entry, looked up): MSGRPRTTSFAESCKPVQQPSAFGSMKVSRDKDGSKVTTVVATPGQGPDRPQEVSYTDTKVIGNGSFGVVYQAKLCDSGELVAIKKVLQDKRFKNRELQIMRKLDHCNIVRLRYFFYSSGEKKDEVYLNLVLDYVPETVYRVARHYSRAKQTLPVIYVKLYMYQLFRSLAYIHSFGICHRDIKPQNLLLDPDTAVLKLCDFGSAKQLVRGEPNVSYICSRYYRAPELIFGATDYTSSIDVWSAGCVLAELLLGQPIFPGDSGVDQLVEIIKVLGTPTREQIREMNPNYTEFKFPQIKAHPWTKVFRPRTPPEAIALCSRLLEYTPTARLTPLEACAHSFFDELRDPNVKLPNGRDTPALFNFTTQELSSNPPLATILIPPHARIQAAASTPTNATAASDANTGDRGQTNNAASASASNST

| SMILES | target or system | test | test system | setting | scale | measurement | result |
| --- | --- | --- | --- | --- | --- | --- | --- |
| CN(C)[C@H]1C[C@@]23CC[C@@]4(O2)C(=CC[C@]2(C)[C@@H](c5ccc6ccncc6c5)CC[C@H]24)C=C3[C@@H](O)[C@@H]1O | GSK3B (Homo sapiens, UniProt P49841) | ATP probe labelling, inhibitor, KiNativ profiling | – | 0.1 µM | – | inhibition | 8.3% |
| CC[C@H](C)[C@H](NC(=O)[C@H](CO)NC(=O)[C@H](Cc1ccc(O)cc1)NC(=O)[C@H](Cc1ccc(O)cc1)NC(=O)[C@H](CC(N)=O)NC(=O)CNC(=O)[C@H](CO)NC(=O)[C@H](Cc1ccc(O)cc1)NC(=O)[C@H](CO)NC(=O)[C@H](CO)NC(=O)[C@H](CC(N)=O)NC(=O)COCCOCCNC(=O)CN1CCN(CC(=O)O)CCN(CC(=O)O)CCN(CC(=O)O)CC1)C(=O)N[C@@H](CC(C)C)C(N)=O [copper-64 labelled] | – | dynamic PET | tamoxifen-induced PDAC mouse model, pancreas | 2.5 min, CLDN4-expressing tumours | – | maximum pancreas uptake | 15.6 %IA/cc |
| CC(C)C[C@@H](NC(=O)[C@@H](CCCCN)NC(=O)CNC(=O)CNC(=O)[C@@H]1CSSC[C@H](N)C(=O)NCC(=O)N[C@@H](CCCNC(=N)N)C(=O)N[C@@H](CCCNC(=N)N)C(=O)N[C@@H](C)C(=O)NCC(=O)NCC(=O)N[C@@H](CO)C(=O)N1)C(=O)N[C@H](C)C(=O)N[C@H](CCCCN)C(=O)N[C@H](CC(C)C)C(=O)N[C@H](C)C(=O)N[C@H](CCCCN)C(=O)N[C@H](CCCCN)C(=O)N[C@H](CC(C)C)C(=O)N[C@H](C)C(=O)N[C@H](CCCCN)C(=O)N[C@H](CC(C)C)C(=O)N[C@H](C)C(=O)N[C@H](CCCCN)C(=O)O | – | – | mouse, plasma | intravenous, 15 mg/kg | – | MRT | 2.12 h |
| Cc1nc2cccc(OCC(C)(C)C(=O)NC(C)C)c2c(N)c1C(=O)[O-].[Na+] | Salmonella typhimurium | Ames preincubation | TA1535 | 0.32 mg/plate, added: with rat liver S9 | – | revertant colonies | 17 ± 3 colonies/plate |
| N=C(N)NCCC[C@H](NC(=O)[C@H](CCCNC(=N)N)NC(=O)[C@H](CCCNC(=N)N)NC(=O)[C@H](CCC(N)=O)NC(=O)[C@H](CCCNC(=N)N)NC(=O)[C@H](CCCNC(=N)N)NC(=O)[C@H](CCCCN)NC(=O)[C@H](CCCCN)NC(=O)[C@H](CCCNC(=N)N)NC(=O)CNC(=O)[C@H](Cc1ccc(O)cc1)NC(=O)[C@H](Cc1ccccc1)NC(=O)[C@H](Cc1ccccc1)NC(=O)[C@H](Cc1ccccc1)NC(=O)Cc1ccc2ccccc2c1)C(=O)O | – | – | C57BL/6 mice | intraperitoneal, 20 mg/kg, 24 h | direction not given | health score | 5 |
| N#[11C]c1ccc(-c2csc(NN=C3CCCC3)n2)cc1 | – | – | C57BL/6 mouse, male | intravenous, 3 MBq, 60 min | – | uptake in blood | 2.57 ± 0.68 %ID/g |
| CCCCC(=O)N[C@H]1[C@H]([C@H](O)[C@H](O)CO)OC(C(=O)OC)=C[C@@H]1O | – | shake flask | aqueous buffer | 2 h, pH 7.4 | – | logD | 0.15 |
| COc1ccccc1-c1n[nH]c2nc(NC3CCN(C(=O)Cc4ccc(F)cc4F)CC3)ncc12 | – | bead binding, competition bead pull-down, measured: LINJ.36.6910 | Leishmania donovani axenic amastigote extract | 10 µM | relative to: vehicle | relative abundance | 0.47 |
| COc1cccc(O)c1C(=O)/C=C/c1ccc2cc(N3CCCC3)ccc2c1 | – | – | C57BL/6J mice, liver | intraperitoneal, 50 mg/kg single, 2 h | – | tissue concentration | 38.5 ng/g |
| Cc1ccccc1-c1ccc(-c2nc(-c3ccc(CN(C)CCCC(=O)O)c([18F])c3)no2)cc1C(F)(F)F | – | – | rat, brain | 2 h | – | tracer uptake | 0.38 %ID/g |
| CC(C)(C)C(=O)OCOP(=O)(OCOC(=O)C(C)(C)C)C1CCCN(O)C1=O (stereo not shown) | SF-539 | – | – | – | – | TGI | 11.8 µM |
| CC(C)[C@@H]1NC(=O)CNC(=O)[C@H](CC(N)=O)NC(=O)[C@H](CCCNC(=N)N)NC(=O)[C@H](Cc2ccc(O)cc2)NC(=O)[C@H](C(C)C)NC(=O)[C@@H](NC(=O)[C@@H](NC(=O)[C@H](CC(N)=O)NC(=O)[C@H](Cc2c[nH]c3ccccc23)NC(=O)[C@H](C)NC(=O)[C@H](Cc2ccccc2)NC(=O)CNC(=O)[C@H](CCCCN)NC(=O)[C@H](Cc2ccccc2)NC(=O)[C@H](Cc2ccccc2)NC(=O)[C@H](CCCCN)NC(=O)OCC2c3ccccc3-c3ccccc32)C(C)C)CSSC[C@@H](C(=O)N[C@@H](Cc2c[nH]cn2)C(=O)N[C@@H](CCCNC(=N)N)C(=O)N[C@@H](CCCNC(=N)N)C(=O)N[C@@H](C)C(=O)N[C@@H](CC(N)=O)C(N)=O)NC(=O)[C@H](C(C)C)NC(=O)[C@H](CCCNC(=N)N)NC1=O | – | – | ICR mice, serum | intraductal mammary, 10 mg/kg, day 5 | – | blood urea nitrogen | 10.7 ± 41 mmol/L |
| CCN(CC)CCOc1ccc(-c2nnn(Cc3ccc(OC)cc3)c2N)cc1 | – | – | beagle dog | oral, at least 40 mg/kg | – | diastolic blood pressure increase | ≤ 14% |
| C(#Cc1cncc(OC[C@@H]2CCN2)c1)c1ccccc1 | – | – | male Sprague-Dawley rat, plasma | oral, 75 mg/kg, 12 h | – | concentration | 0.17 µg/mL |
| CC[C@H](C)[C@H](NC(=O)[C@H](CCCCN)NC(=O)CNC(=O)[C@H](CC(C)C)NC(=O)[C@H](Cc1ccccc1)NC(=O)[C@H](CCCCN)NC(=O)[C@H](CO)NC(=O)[C@H](Cc1ccccc1)NC(=O)[C@H](Cc1c[nH]c2ccccc12)NC(=O)[C@H](CCC(N)=O)NC(=O)[C@@H](NC(=O)[C@H](Cc1ccccc1)NC(=O)CCCCCNC(=O)CN1CCN(CC(=O)O)CCN(CC(=O)O)CCN(CC(=O)O)CC1)C(C)C)C(=O)N[C@@H](CCC(=O)O)C(=O)N1CCC[C@H]1C(=O)N[C@@H](CC(=O)O)C(=O)N[C@H](C(=O)N[C@@H](CO)C(=O)N[C@@H](CCC(N)=O)C(=O)N[C@H](C(=O)N[C@@H](CCC(N)=O)C(=O)N[C@@H](CC(=O)O)C(=O)N1CCC[C@H]1C(=O)N[C@@H](CC(N)=O)C(=O)N[C@@H](CC(=O)O)C(=O)N[C@@H](CCC(N)=O)C(=O)N[C@@H](Cc1ccc(O)cc1)C(=O)N[C@@H](CCC(=O)O)C(=O)N1CCC[C@H]1C(=O)N[C@@H](Cc1ccccc1)C(=O)O)C(C)C)C(C)C [copper-64 labelled] | – | dynamic PET | mouse, CT26 tumour, checkpoint inhibitor-treated, tumour | intravenous, 100 µCi/mouse, 1500 s | – | SUVmean | 4.65 SUV |
| CCCCC[C@@H]1NC(=O)[C@@H](C)N(C)C(=O)[C@H](CCCCC)NC(=O)[C@@H](C)N(C)C(=O)[C@H](CCCCC)NC(=O)[C@@H](C)N(C)C(=O)[C@H](CCCCC)NC(=O)[C@@H](C)N(C)C1=O | – | PAMPA | – | 500 µM, pH 7.4, UV/ELSD/MS detection | – | log Papp | -5.5 |
| COc1ccccc1-c1n[nH]c2nc(N[C@H]3CC[C@H](NS(=O)(=O)CC(C)C)CC3)ncc12 | – | bead binding, competition bead pull-down, measured: LINJ.10.0430 | Leishmania donovani extract | 10 µM | relative to: vehicle | relative abundance | 0.99 |
| O=C1NC2(CC2)COc2ncc(F)cc2[C@H]2COCCN2c2ccn3ncc1c3n2 | – | – | Sprague-Dawley rat, female, kidneys | oral, 20 mg/kg/day, 4 weeks dosing, end of recovery | – | organ-to-brain weight ratio | 108 ± 8.55% |
| CN1Cc2cc(Cl)ccc2-n2c(nnc2C2CCN(c3cccc([18F])n3)CC2)C1 | – | PET two-tissue compartment model | rhesus monkey, thalamus | intravenous, dose not given, 100 min scan, baseline scan | – | total volume of distribution | 1.14 ± 0.35 mL/cm3 |

Repeated from above:
| SMILES | target or system | test | test system | setting | scale | measurement | result |
| --- | --- | --- | --- | --- | --- | --- | --- |
| CC(C)[C@@H]1NC(=O)CNC(=O)[C@H](CC(N)=O)NC(=O)[C@H](CCCNC(=N)N)NC(=O)[C@H](Cc2ccc(O)cc2)NC(=O)[C@H](C(C)C)NC(=O)[C@@H](NC(=O)[C@@H](NC(=O)[C@H](CC(N)=O)NC(=O)[C@H](Cc2c[nH]c3ccccc23)NC(=O)[C@H](C)NC(=O)[C@H](Cc2ccccc2)NC(=O)CNC(=O)[C@H](CCCCN)NC(=O)[C@H](Cc2ccccc2)NC(=O)[C@H](Cc2ccccc2)NC(=O)[C@H](CCCCN)NC(=O)OCC2c3ccccc3-c3ccccc32)C(C)C)CSSC[C@@H](C(=O)N[C@@H](Cc2c[nH]cn2)C(=O)N[C@@H](CCCNC(=N)N)C(=O)N[C@@H](CCCNC(=N)N)C(=O)N[C@@H](C)C(=O)N[C@@H](CC(N)=O)C(N)=O)NC(=O)[C@H](C(C)C)NC(=O)[C@H](CCCNC(=N)N)NC1=O | – | – | ICR mice, serum | intraductal mammary, 10 mg/kg, day 5 | – | blood urea nitrogen | 10.7 ± 41 mmol/L |
| CCN(CC)CCOc1ccc(-c2nnn(Cc3ccc(OC)cc3)c2N)cc1 | – | – | beagle dog | oral, at least 40 mg/kg | – | diastolic blood pressure increase | ≤ 14% |
